Experimental data from different studies.
Protocols differ between the studies behind these lines. ± marks the error that the study gave.
ALB: Albumin (ALB, Bos taurus, UniProt P02769)
Sequence of UniProt P02769 (whole entry, looked up): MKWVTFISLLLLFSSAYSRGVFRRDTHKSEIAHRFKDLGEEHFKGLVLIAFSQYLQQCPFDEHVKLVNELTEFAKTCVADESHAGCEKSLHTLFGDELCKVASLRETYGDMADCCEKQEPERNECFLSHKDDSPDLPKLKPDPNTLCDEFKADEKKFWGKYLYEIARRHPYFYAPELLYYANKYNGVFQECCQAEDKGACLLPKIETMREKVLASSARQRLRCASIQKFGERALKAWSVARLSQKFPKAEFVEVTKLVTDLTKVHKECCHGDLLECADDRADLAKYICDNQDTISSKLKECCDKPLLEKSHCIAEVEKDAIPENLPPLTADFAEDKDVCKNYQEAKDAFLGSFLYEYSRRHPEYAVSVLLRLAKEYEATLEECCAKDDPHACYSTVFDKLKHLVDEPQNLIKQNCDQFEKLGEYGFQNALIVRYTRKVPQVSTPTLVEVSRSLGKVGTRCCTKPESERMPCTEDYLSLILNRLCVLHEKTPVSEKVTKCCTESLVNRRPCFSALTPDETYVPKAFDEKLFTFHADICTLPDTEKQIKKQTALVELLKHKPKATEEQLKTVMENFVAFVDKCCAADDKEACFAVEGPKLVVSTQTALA
PKM: Pyruvate kinase PKM (PKM, Homo sapiens, UniProt P14618)
Sequence of UniProt P14618 (whole entry, looked up): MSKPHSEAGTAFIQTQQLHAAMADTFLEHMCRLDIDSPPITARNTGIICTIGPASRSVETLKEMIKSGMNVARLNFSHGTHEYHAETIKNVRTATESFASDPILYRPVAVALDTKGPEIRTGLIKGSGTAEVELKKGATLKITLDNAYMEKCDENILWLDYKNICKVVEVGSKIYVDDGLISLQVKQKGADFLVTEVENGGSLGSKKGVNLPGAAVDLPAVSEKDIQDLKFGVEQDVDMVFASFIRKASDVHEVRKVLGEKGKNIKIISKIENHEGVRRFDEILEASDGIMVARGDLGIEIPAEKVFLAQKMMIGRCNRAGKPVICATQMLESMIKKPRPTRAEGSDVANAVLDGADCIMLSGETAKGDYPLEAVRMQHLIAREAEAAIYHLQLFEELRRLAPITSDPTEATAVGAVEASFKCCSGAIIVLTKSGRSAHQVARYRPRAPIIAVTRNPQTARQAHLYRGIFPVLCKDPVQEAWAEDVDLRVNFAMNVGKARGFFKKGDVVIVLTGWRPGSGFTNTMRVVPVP
S1PR3: Sphingosine 1-phosphate receptor 3 (S1PR3, Homo sapiens, UniProt Q99500)
Sequence of UniProt Q99500 (whole entry, looked up): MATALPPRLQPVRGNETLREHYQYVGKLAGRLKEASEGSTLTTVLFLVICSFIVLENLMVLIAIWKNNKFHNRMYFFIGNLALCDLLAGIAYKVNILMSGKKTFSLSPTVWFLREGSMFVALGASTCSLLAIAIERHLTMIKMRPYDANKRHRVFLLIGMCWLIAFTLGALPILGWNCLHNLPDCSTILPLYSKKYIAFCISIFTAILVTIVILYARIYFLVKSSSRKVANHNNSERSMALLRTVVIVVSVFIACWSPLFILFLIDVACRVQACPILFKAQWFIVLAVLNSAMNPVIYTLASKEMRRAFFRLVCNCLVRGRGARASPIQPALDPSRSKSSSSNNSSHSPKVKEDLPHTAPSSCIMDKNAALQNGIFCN
CHRM4: Muscarinic acetylcholine receptor M4 (CHRM4, Homo sapiens, UniProt P08173)
Sequence of UniProt P08173 (whole entry, looked up): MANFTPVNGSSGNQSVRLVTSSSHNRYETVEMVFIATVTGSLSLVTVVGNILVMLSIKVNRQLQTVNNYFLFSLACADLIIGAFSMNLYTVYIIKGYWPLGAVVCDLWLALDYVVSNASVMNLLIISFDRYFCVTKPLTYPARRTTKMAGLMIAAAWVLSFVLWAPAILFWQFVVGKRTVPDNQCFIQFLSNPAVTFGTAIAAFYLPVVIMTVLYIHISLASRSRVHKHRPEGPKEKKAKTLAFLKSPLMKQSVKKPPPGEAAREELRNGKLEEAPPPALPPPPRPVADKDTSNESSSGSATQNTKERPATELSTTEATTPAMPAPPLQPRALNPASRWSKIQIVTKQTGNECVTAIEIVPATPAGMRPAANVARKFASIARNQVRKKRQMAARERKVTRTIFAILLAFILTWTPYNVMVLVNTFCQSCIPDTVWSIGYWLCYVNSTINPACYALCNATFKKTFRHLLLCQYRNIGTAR
INPP5D: Phosphatidylinositol 3,4,5-trisphosphate 5-phosphatase 1 (INPP5D, Homo sapiens, UniProt Q92835)
ALK tyrosine kinase receptor/Echinoderm microtubule-associated protein-like 4: ALK tyrosine kinase receptor/Echinoderm microtubule-associated protein-like 4 (Homo sapiens, UniProt Q9HC35+Q9UM73)
Sequence of UniProt Q9UM73 (whole entry, looked up): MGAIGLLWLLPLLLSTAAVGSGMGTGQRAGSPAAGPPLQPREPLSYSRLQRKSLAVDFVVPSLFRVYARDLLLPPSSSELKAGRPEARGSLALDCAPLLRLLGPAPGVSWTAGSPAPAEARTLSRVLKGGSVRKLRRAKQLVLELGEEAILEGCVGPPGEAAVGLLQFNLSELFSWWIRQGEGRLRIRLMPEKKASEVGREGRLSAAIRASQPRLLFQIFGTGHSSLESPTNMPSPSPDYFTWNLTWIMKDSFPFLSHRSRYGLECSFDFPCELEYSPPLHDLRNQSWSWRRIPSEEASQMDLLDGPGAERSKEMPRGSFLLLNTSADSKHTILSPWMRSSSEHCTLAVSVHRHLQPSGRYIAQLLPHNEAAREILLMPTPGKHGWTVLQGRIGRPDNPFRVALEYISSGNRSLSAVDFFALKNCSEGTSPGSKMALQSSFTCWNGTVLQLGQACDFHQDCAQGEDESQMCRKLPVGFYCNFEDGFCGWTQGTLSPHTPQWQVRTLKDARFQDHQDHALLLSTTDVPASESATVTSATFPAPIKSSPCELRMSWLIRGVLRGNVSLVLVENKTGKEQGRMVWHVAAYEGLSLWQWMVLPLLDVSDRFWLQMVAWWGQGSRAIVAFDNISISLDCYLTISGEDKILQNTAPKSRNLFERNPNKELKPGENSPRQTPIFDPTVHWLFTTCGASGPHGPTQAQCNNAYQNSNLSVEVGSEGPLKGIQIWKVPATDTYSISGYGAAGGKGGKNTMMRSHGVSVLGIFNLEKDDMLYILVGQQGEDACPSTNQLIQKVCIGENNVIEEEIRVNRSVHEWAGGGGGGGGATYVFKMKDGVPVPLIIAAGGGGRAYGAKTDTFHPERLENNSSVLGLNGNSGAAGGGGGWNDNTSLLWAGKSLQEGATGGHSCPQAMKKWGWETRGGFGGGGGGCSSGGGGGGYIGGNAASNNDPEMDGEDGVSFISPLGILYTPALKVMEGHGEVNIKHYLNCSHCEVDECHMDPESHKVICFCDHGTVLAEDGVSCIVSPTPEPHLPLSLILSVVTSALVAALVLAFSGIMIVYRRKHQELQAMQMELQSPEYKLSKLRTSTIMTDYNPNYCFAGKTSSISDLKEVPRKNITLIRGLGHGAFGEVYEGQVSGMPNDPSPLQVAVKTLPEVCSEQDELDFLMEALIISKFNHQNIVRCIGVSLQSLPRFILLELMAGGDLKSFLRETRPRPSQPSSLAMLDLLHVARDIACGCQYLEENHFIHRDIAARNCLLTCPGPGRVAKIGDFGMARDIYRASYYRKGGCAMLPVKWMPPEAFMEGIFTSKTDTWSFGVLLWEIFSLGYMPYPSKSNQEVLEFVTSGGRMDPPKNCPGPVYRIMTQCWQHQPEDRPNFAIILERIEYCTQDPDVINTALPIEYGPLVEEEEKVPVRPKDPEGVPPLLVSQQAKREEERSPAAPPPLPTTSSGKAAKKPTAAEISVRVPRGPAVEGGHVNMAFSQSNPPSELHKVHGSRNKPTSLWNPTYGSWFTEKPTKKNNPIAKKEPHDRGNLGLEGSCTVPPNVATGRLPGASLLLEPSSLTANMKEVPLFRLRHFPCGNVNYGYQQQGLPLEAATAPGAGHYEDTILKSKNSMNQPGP
Sequence of UniProt Q9HC35 (whole entry, looked up): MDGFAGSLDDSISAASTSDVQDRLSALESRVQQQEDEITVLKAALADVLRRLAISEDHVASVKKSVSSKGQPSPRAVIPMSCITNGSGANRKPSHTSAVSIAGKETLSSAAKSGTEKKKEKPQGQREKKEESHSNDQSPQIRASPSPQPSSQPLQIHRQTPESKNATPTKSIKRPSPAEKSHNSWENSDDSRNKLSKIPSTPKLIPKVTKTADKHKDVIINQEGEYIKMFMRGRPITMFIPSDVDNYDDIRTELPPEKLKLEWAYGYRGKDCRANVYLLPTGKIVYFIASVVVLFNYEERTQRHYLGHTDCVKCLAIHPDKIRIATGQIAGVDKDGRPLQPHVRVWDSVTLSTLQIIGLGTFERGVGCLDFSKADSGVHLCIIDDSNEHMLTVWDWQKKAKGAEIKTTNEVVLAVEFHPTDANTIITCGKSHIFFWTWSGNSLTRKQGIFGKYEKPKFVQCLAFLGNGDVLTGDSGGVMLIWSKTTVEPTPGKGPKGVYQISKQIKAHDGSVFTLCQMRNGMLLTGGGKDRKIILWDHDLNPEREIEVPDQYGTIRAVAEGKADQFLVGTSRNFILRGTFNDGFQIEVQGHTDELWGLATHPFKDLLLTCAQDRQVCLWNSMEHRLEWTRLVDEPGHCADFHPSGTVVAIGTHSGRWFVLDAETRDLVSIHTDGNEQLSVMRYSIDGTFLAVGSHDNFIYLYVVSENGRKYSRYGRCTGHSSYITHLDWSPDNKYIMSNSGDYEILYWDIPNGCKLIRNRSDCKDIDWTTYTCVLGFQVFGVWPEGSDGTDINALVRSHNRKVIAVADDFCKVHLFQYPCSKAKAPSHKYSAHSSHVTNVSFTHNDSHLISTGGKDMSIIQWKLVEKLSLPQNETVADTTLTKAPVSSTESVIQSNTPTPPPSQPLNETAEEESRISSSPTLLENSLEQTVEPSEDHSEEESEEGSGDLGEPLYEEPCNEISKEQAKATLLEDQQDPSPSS
Sequence of UniProt P25090 (whole entry, looked up): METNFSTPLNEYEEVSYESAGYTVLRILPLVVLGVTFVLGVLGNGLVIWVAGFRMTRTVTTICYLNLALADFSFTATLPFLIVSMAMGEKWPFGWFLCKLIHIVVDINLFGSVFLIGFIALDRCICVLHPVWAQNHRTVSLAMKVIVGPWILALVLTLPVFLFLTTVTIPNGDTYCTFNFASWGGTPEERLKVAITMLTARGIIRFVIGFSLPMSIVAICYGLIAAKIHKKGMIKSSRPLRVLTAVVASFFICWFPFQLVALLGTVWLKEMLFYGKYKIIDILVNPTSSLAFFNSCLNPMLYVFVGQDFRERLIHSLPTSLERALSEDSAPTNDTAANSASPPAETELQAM

SMILES | target | assay | system | setting | measurement | result
Cc1ccc(Oc2cc(C(=O)NCc3ccccn3)nc3ccsc23)cn1 | GRM5 (Homo sapiens, UniProt P41594) | calcium signal, agonist | – | – | EC50 | > 30 µM
CCCCCCCCCCCC(=O)Nc1ccccc1SSc1ccccc1NC(=O)CCCCCCCCCCC | ALB | binding, fluorescence quenching | – | pH 7.4, 298 K | Kd | 0.0017 µM
O=C(NCc1cccnc1)c1ccc2c(c1)[C@H]1[C@@H]3CC[C@@H](C3)[C@H]1[C@H](c1ccccc1)N2 | PKM | enzyme activity, activator, Kinase-Glo Plus | – | 1 h, room temperature, added: ADP 0.1 mM, PEP 0.5 mM | AC50 | 8.47 µM
CN1CCN(CC(=O)N2N=C3/C(=C/c4ccccc4)CCCC3C2c2ccccc2)CC1 (mixture of isomers) | ALOX15 (Homo sapiens, UniProt P16050) | enzyme activity, activator | – | added: linoleic acid 10 µM | AC50 | 5.3 µM
CCCCCCCCCCCCCCCC(=O)Nc1ccccc1SSc1ccccc1NC(=O)CCCCCCCCCCCCCCC | ALB | binding, fluorescence quenching | – | pH 7.4, 308 K | Kd | 17500 µM
CCCCCCCOc1ccc(CC[C@](N)(CO)COP(=O)(O)O)cc1C(F)(F)F | S1PR3 | calcium signal, agonist | – | – | EC50 | > 10 µM
CCCCCCOc1ccc(C(=O)OCC[N+]2(C)CC=CCC2)cc1 (stereo not shown) | CHRM4 | inositol phosphate accumulation, antagonist, Schild analysis | CHO co-expressing G15 | added: carbachol | Kb | 0.138 µM
C=CC(=O)c1nc(C#N)ccc1N1CCCOCC1 | INPP5D | target engagement | HMC3 expressing HiBiT-INPP5D | 60 min, 37 °C | AC50 | 41 µM
CCCCOc1ccc(C(=O)OCCN2CC=CCC2)cc1 | CHRM4 | inositol phosphate accumulation, antagonist, Schild analysis | CHO co-expressing G15 | added: carbachol | Kb | 77.6 µM
CCc1nc(-c2ccc(-c3ccc(CCC(N)(CO)COP(=O)(O)O)cc3)cc2)co1 (stereo not shown) | S1PR1 (Homo sapiens, UniProt P21453) | β-arrestin recruitment, agonist | – | – | EC50 | 0.0124 µM
CSCC[C@H](NC(=O)CNC(=O)[C@H](CCCCN)NC(=O)[C@@H](N)Cc1c[nH]c2ccccc12)C(=O)N[C@H](C(=O)N[C@H](CCSC)C(N)=O)C(C)C | FPR2 (Homo sapiens, UniProt P25090) | binding, competitor | RBL | 4 °C, added: 5 nM WK(FL)YMVm | EC50 | 0.176 µM
CC[C@H]1CC[C@H]2[C@@H]3C[C@@H](O)[C@@]4(O)C[C@H](N)CC[C@]4(C)[C@H]3CC[C@]12C | INPP5D | target engagement | HMC3 expressing HiBiT-INPP5D | 60 min, 37 °C | AC50 | 97 ± 16 µM
COc1cc(N2CCN(C(=O)C3CCCN3)CC2)ccc1Nc1ncc(Cl)c(Nc2ccccc2P(C)(C)=O)n1 (stereo not shown) | ALK tyrosine kinase receptor/Echinoderm microtubule-associated protein-like 4 | degrader | – | – | DC50 | 0.074 µM
CCc1nc(-c2ccc(-c3ccc(CCC(N)(CO)CO)cc3)cc2)co1 | S1PR3 | β-arrestin recruitment, agonist | – | – | EC50 | 4.23 µM
COc1cc(N2CCN(C(=O)CCOCCOCCOCCNC(=O)[C@@H]3CCCN3)CC2)ccc1Nc1ncc(Cl)c(Nc2ccccc2P(C)(C)=O)n1 | ALK tyrosine kinase receptor/Echinoderm microtubule-associated protein-like 4 | degrader | – | – | DC50 | 0.416 µM
CC(C)COC(=O)c1ccc2c(c1)[C@H]1C=CC[C@H]1[C@@H](c1ccccc1)N2 | PKM | enzyme activity, activator, Kinase-Glo Plus | – | 1 h, room temperature, added: ADP 0.1 mM, PEP 0.5 mM | AC50 | 2.38 µM

Some of these lines once more:
SMILES | target | assay | system | setting | measurement | result
CSCC[C@H](NC(=O)CNC(=O)[C@H](CCCCN)NC(=O)[C@@H](N)Cc1c[nH]c2ccccc12)C(=O)N[C@H](C(=O)N[C@H](CCSC)C(N)=O)C(C)C | FPR2 (Homo sapiens, UniProt P25090) | binding, competitor | RBL | 4 °C, added: 5 nM WK(FL)YMVm | EC50 | 0.176 µM
CC(C)COC(=O)c1ccc2c(c1)[C@H]1C=CC[C@H]1[C@@H](c1ccccc1)N2 | PKM | enzyme activity, activator, Kinase-Glo Plus | – | 1 h, room temperature, added: ADP 0.1 mM, PEP 0.5 mM | AC50 | 2.38 µM
